# Measurements pooled from the literature.
# Protocols differ between the studies behind these lines.
# Read-out: metabolic stability
# Species: mouse
Compound,medium,concentration,pH,half-life [min]
Cl.N=C(N/N=C/c1cnc2ccccc2c1)N/N=C/c1cnc2ccccc2c1,liver microsomes,1 µM,pH 7.4,4.75
O=c1c2ccc(OC3CCNCC3)cc2[nH]c2cc(F)cc(Cl)c12,liver microsomes,1 µM,pH 7.4,> 60
Cc1ncsc1-c1ccc([C@H](C)NC(=O)[C@@H]2C[C@@H](O)CN2C(=O)[C@@H](NC(=O)CCCCCCCCC(=O)N2CCC(n3cc(-c4ccc5c(c4)CCN5C(=O)Cc4cccc(OC(F)(F)F)c4)c4c(N)ncnc43)CC2)C(C)(C)C)cc1,liver S9,1 µM,,67.3
O=c1c2ccc(Oc3ccc(OC(F)(F)F)cc3)cc2[nH]c2cc(F)c(Cl)cc12,liver microsomes,1 µM,pH 7.4,> 60
N=C(N/N=C/c1ccc(Cl)cc1)N/N=C/c1ccc(Cl)cc1,liver microsomes,1 µM,pH 7.4,159
Cc1ncsc1-c1ccc([C@H](C)NC(=O)[C@@H]2C[C@@H](O)CN2C(=S)[C@H](C)NC(=O)CCCCCCCCCCC(=O)N2CCC(n3cc(-c4ccc5c(c4)CCN5C(=O)Cc4cccc(OC(F)(F)F)c4)c4c(N)ncnc43)CC2)cc1,liver S9,1 µM,,53.5
CCCN(CCC)CCCOc1ccc2c(=O)c3c([nH]c2c1)CCCC3,liver microsomes,1 µM,pH 7.4,40.6
Cc1ncsc1-c1ccc([C@H](CC(=O)N2CCN(c3ccc(C#Cc4ccc(C(=O)N5CCC(n6cc(-c7ccc8c(c7)CCN8C(=O)Cc7cccc(OC(F)(F)F)c7)c7c(N)ncnc76)CC5)cc4)cn3)CC2)NC(=O)[C@@H]2C[C@@H](O)CN2C(=O)[C@@H](NC(=O)C2(F)CC2)C(C)(C)C)cc1,liver S9,1 µM,,> 90
CC(C)n1ncc2c(C(=O)NC(C)(C)CN)cc(C3CC3)nc21,liver microsomes,,,72.6
Cc1ncsc1-c1ccc([C@H](CC(=O)N2CC3(C2)CN(c2ccc(C#Cc4ccc(C(=O)N5CCC(n6cc(-c7ccc8c(c7)CCN8C(=O)Cc7cccc(OC(F)(F)F)c7)c7c(N)ncnc76)CC5)cc4)cn2)C3)NC(=O)[C@@H]2C[C@@H](O)CN2C(=O)[C@@H](NC(=O)C2(F)CC2)C(C)(C)C)cc1,liver S9,1 µM,,> 90
CC(C)c1cc(C(=O)NCCN2CCCC2)c2cnn(C(C)C)c2n1,liver microsomes,,,28.2
O=c1c2c([nH]c3cc(OC(F)(F)F)ccc13)CCCC2,liver microsomes,1 µM,pH 7.4,10
Cl.N=C(N/N=C/c1ccnc2ccccc12)N/N=C/c1ccnc2ccccc12,liver microsomes,1 µM,pH 7.4,16.6
CC(C)n1ncc2c(C(=O)NCC3(F)CNC3)cc(C3CC3)nc21,liver microsomes,,,70.1

# Repeated from above:
Compound,medium,concentration,pH,half-life [min]
O=c1c2ccc(OC3CCNCC3)cc2[nH]c2cc(F)cc(Cl)c12,liver microsomes,1 µM,pH 7.4,> 60
